Experimental data collected from several papers.
Every numbered part comes from another study and shows a few of its results, in no order. Changes are numbered by the printed parent chain.

Series 1 — method: aptamer microarray, sandwich; form: DNA with 2'F-ANA; medium: in vitro; concentration: 200 nM; added: Cy3 exosite-II aptamer, 400 nM; direction: higher = stronger binding; strand: GGTTGGTGTGGTTGG
Target: Prothrombin, mature alpha-thrombin (F2, Homo sapiens, UniProt P00734)
Setting: whole 15-mer aptamer, many near background
Modification	mean fluorescence intensity [a.u.]
2'F-ANA at 2 5 6 7 8 14 15	46.3
2'F-ANA at 1 3 5 7 8 10 11 12	47.2
2'F-ANA at 1 2 3 5 6 11 12 14	49.9
2'F-ANA at 3 4 5 6 10 11 13	49
2'F-ANA at 1 3 4 6 9 10 11 15	70
2'F-ANA at 1 3 4 10 11 13 14	51.8
2'F-ANA at 1 2 3 4 5 7 10 11 14	52.5
2'F-ANA at 1 2 3 4 9 13 14 15	58.2
2'F-ANA at 4 5 6 7 8 9 11 12 13 15	75
2'F-ANA at 1 3 12 14 15	147
2'F-ANA at 1 3 8 9 10 11 12 13	101
2'F-ANA at 2 3 4 9 12 13	602
2'F-ANA at 1 5 6 10 11 13	59.7
2'F-ANA at 2 3 4 5 6 7 10 12 13 14	46.6
2'F-ANA at 2 8 12 14	221
2'F-ANA at 3 4 5 6 8 9 13	63.5
2'F-ANA at 2 4 11	299
2'F-ANA at 1 2 5 7 10 12 14 15	52.3
2'F-ANA at 1 6 9 11 13	107
2'F-ANA at 10 12 13 14	142
2'F-ANA at 2 4 5 6 8 9 12 13	89.6
2'F-ANA at 2 3 4 5 6 7 8 9 11 12 13 14 15	54.1
2'F-ANA at 1 2 3 4 7 8 12 13 14 15	86.6
2'F-ANA at 1 2 5 6 7 9 10 13 14 15	64
2'F-ANA at 2 4 5 6 10 11 13 14	50.5

Series 2 — target: CCNA2, cyclin fold, Cln2 fusion (human); method: yeast growth competition, sequencing; medium: yeast; setting: weak parent motif; reference: not given; direction: higher = stronger binding
Parent: RP1L1 docking peptide (human); TLGLGPLSFTLED
Substitution	normalised enrichment score
L11A	-0.46
L7A	-0.303
D13A	-0.558
T1A	-0.459
F9A	-0.555
G3A	-0.426

Series 3 — method: protein-binding microarray; form: double-stranded DNA, one strand shown; medium: in vitro; concentration: 250 nM; setting: 60-bp whole probe; added: salmon DNA 0.4 mg/ml; reference: random background probes; direction: higher = stronger binding; constant ends, left off below: GCCTAGCAC … GTCTTGATTCGCTTGACGCTGCTG
Target: Interferon regulatory factor 7, full length, phosphomimetic (IRF7, Homo sapiens, UniProt Q92985, residues 1-503, S101K/S471D/S472D/S475D/S476D/S477D/S483D/S484D/S487D)
Residues (chain): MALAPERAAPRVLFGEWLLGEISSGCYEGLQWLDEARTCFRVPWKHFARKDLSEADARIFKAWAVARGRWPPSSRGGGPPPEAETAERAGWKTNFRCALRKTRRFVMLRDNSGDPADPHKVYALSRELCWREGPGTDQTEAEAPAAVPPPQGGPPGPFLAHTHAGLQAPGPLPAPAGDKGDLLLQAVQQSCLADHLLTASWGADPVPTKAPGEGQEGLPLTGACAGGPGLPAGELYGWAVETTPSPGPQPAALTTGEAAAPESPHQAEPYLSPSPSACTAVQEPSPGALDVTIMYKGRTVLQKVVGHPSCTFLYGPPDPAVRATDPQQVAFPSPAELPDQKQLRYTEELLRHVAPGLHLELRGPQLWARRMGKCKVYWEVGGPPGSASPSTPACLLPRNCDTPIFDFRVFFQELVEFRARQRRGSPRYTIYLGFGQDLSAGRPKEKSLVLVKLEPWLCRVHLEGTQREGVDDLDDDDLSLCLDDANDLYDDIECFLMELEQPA
Strand	log fluorescence
GACGAACGGAGTCTCGAGACGTGCTAG	0.176 z-score
TTAGGTATCGGTTTCGATTAGTGCTAG	10.9 z-score
TTAGAAATGGGGTATCGATTAGTGCTA	0.138 z-score
GACGGTTTCCGACTGGGGACGTGCTAG	1.14 z-score
CCTGTAATCCCAGCTACTCAGTGCTAG	0.0928 z-score
TTAGGTATCGAATATCGGTTAGTGCTA	0.213 z-score
GACGGTTTCCTACTGCTGGCGTGCTAG	1.71 z-score
GACGGTTCCGACACTGGGGACGTGCTA	-0.123 z-score
TTAGGGCTGCTTATCCTTTAGTGCTAG	-0.468 z-score
TATTATTTGCCTTGCATTTTGTGCTAG	0.46 z-score
TTATATACCTGTATATCTTCGTGCTAG	0.54 z-score
GACGTACTGAGTATCGAGACGTGCTAG	0.297 z-score
TCAACTCTTTACATGGGACTGTGCTAG	0.258 z-score
TGAGGTATCGGTATCGGTTAGTGCTAG	2.06 z-score
TCACCAATGGTCTTTCCAACTGTGCTA	-0.597 z-score
TTAGGTCTCCTTCTCCTTTTGTGCTAG	0.854 z-score
ACTTCATTGCATATAGAAAAGTGCTAG	1.04 z-score
CTGTCTGAGGACACCCTGGCGTGCTAG	-0.0452 z-score
TTAGGTTTGCTTTCCCTTTAGTGCTAG	2.15 z-score
ATAGGTATCCTACTGCTTTAGTGCTAG	0.0213 z-score
ACGTTTTTCATTTTTTTTTTGTGCTAG	2.13 z-score
TCACATCTGATTTCTCAAACTGTGCTA	0.606 z-score

Series 4 — method: protein binding microarray; form: double-stranded DNA, one strand shown; medium: in vitro; concentration: not given; reference: not given; direction: higher = stronger binding
Target: Histone acetyltransferase KAT6A, winged helix 1, GST fusion (KAT6A, Homo sapiens, UniProt Q92794, residues 1-85)
Setting: 8-mer, flanks averaged, mean of 2 arrays, mostly near background
Target sequence (chain): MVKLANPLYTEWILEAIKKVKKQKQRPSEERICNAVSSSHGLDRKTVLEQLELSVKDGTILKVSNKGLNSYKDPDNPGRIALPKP
Strand	E-score
AACGTTTA	-0.107
CGCACGGC	0.449
ATCATCTC	-0.196
AAGGACCC	-0.0155
ACGGTGGC	0.112
GTGGATCA	-0.139
GATGGCGA	0.0143
ATTGATGC	0.0102
AGTGTCAA	-0.185
ATATGTAA	-0.162
CGATCCCG	0.283
GCTCAGCA	-0.128
AGTTAAAA	-0.124
AGCCTCGG	0.0566
GTCATCAC	-0.062
AAACGATC	-0.19
GGCGGAAA	0.152
ACACATTC	-0.0954
AAAGTACG	0.00417
CATACCTA	-0.0753
AAGTCACC	-0.12

Series 5 — method: RNA Bind-n-Seq; form: RNA; medium: in vitro; concentration: 365 nM; reference: no-protein control; direction: higher = stronger binding
Target: RNA binding protein fox-1 homolog 2, RRM domain, GST-SBP tag (RBFOX2, Homo sapiens, UniProt O43251-10, residues 100-194)
Setting: natural RNA segment, single round, ends assumed
Constant ends, left off below: GGGAGUUCUACAGUCCGACGAUC … UGGAAUUCUCGGGUGCCAA
Residues (chain): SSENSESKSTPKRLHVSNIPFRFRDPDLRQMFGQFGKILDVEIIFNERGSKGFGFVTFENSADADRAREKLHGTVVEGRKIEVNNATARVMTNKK
Strand	RBNS enrichment (R)
GGUGUGUGUGCCAUGUCACAGCAUGGCCUCUCGGCCUUGGGAAGGAAGGCAGUGCCUGCUCUGCUGUGAGCCGCCAGGAACCCUCCUCCUGUCAAUGGGGGUGUAGUAUU	0.593
GCGCCACUCACCCUCAGUGUCCUUCCGUGAGGCUUCUCGCCAAAGAUGAUAGAGGGUGAAUGAUCUCAGUGCAUAUGUCAUACUGCCUUGUGGGUGGACUCUAAGUUGGC	0.284
UGGACCCUGCAGAGUGCUGGGGACGGGGUCACCGGUGUGGACAUGUGCUGGAUGUUGCUCCUUUCCCCGAUUUCAAGUUGAUGUUGACAGAAUUUCAGUAGCUUACAUAA	1.32
AGUUCUACAAACUGAUCUCCUUAACCACAACCAAGAUAGGCAUGUCACCAUGUCAAUUCCCCUUUUCUUAGCAACCAGUUCAAUGUUCUGCCCCUUCAAUCUUACCUUUU	0.882
GAAAUUGAAAAUGACCAAAAUCAGGAACCACAGAUUUGUGCCCAUUCCUAAUAUUUUGUUCUGCAAAUUAAUGUAUAAUUUGAGGUGAAAUUCAGUUAUAAAGUCAAGGA	0.292
AGCCACACAGCUAUUCUUUGGCCAGACCCUCACUACAGUAACUCAUCAACUCUGGCUCUUGUAGGGGCUGGAGCAGCUAGUUCAUGCUGCCUGUGGAACUCACUUCCUGG	0.244
GACCUCAGACACUCUCUGGCUAAUAUUUUAAUAAGCUCACAGCAGAUAAUUCUGAGAUCAUGGGUGAGGGGUGGUGCAUGUUGAGAUUUAAAUUGGCAUAAAGCUGCAUA	3.07
GUUCUGUAAUUUAUUGAACAUUGGCCCUUGGGUAUAGCUUGACCCUUCCCAGAAUCUGUUUUGCCAUCUGCCAUUUGAGGGUGCUUGUUCUAAACAGCCUUUGAGGGUUU	0.479
UGUUAUAACUUAGUGACUUUUGAUUUCUAGAGGUGUAAAUGAGGAUGUAAAAAUUGAUAUAGUUGUGAUACAGAGUAUAUUUCCCUUCAGAUAACAUACCACAACACAAU	0.593
GUGUUCUGUGUCCCUUGCAUGUGUGCGUGUUAGAGUGAGCGCGUAUGCAUCAACUCAUUGGGCUCUUGGCUGCUCACAAGGCAAAUUUGACUUGGAAAGACUUUCAUCUC	2.42
AGCAAGGUGCCGCUGAUCCAGCGUGGCAGUGCCAACGGCCUCUGAUCCACCCAUGUGCUGCCCGCCUGCCCACCCGCCUUUUAUAAACCUCUAAUUUAUUUUGUUGAAUU	0.693
UGCCCAUGCUGUCUACUGUGCCUCCUUAUGAGGGCAUCAUGUUGGUCUCUGUUGUGCUUACUGCAGGCUGUAAUGGCACUUUUGCUUGUUUCACUUGUUCCCUCUGAGGC	0.875

Some of these lines once more (series 1):
Modification	mean fluorescence intensity [a.u.]
2'F-ANA at 1 3 8 9 10 11 12 13	101
2'F-ANA at 1 3 4 10 11 13 14	51.8
2'F-ANA at 1 2 3 4 7 8 12 13 14 15	86.6
2'F-ANA at 2 5 6 7 8 14 15	46.3
2'F-ANA at 1 3 4 6 9 10 11 15	70
2'F-ANA at 1 2 3 5 6 11 12 14	49.9
2'F-ANA at 2 8 12 14	221
2'F-ANA at 3 4 5 6 10 11 13	49
2'F-ANA at 1 6 9 11 13	107
